Experimental data of several laboratories.
Several values in a cell are separate wells, animals, samples, runs or records. ± marks the error that the study gave. In brackets after ≈: the same amount, converted by molar mass.

SMILES	test	test system	conditions	scale	endpoint	result
O=c1ccc2cc3ccoc3cc2o1	post-procedure stability	rat plasma	200 ng/mL, 1 h, room temperature		accuracy	82%
Cc1ccc(F)c2cc(C(=O)N[C@@H]3CCC[C@H](N4CC[C@H](N(C)S(C)(=O)=O)C4)C3)[nH]c12		CD1 mouse, plasma	oral, 100 mg/kg, 1 h		plasma concentration	3260 ng/mL
COc1cc2c(Oc3ccc4[nH]c(C)cc4c3F)ccnc2cc1OCC1(N)CC1		paediatric refractory sarcoma patients	8 mg		grade 3 mouth ulcer	0%
Nc1ncc(-c2nc(N3CCOCC3)nc(N3CCOCC3)n2)c(C(F)F)n1	shake flask	buffer	24 h, pH 4.5, 25 °C		thermodynamic solubility	3.8 µM (≈ 1.5 µg/mL)
Clc1ccc(-c2ccccc2)cc1		rat Sprague-Dawley female, serum	inhalation, 35 µg/rat, 24 h		serum Calcium	10 ± 0.6 mg/dL
N#C[C@@]1(n2ccc(N)nc2=O)O[C@H](CO)[C@@H](O)[C@H]1O		CD-1 mouse, brain	intravenous, dose not given, 7 h		concentration	440 nM and 150 nM and 210 nM
C[C@@H]1OC(=O)NN=C1c1ccc(-c2ccc(F)cc2)c(C(F)(F)F)c1	phase I trial, refers to: Dyspnoea worst grade 2	human patients	10 mg loading then 0.5 mg daily		patients with adverse event	0%
Cc1ccccc1C(=O)NN=Cc1ccc(O)c(Br)c1		normal C3H/HeN mouse, plasma	intraperitoneal, 1.6 mg/kg		Cmax	112 ng/mL
C=C(CN(C(=O)c1c(C(F)F)nn(C)c1F)C1CC1)c1ccc(Cl)cc1Cl	static acute toxicity test	zebrafish (Brachydanio rerio)	1.20 mg a.i./L, 72 h		mortality	70%
O=C1Nc2cc3[nH]nc(-c4ccncc4)c3cc2CN1Cc1ccccc1	CTCAE v4.03	advanced solid tumour patients	intravenous, 7.2 mg/kg, schedules 1/2		patients with increased GGT	20%
CC(C)c1nc(N(C)S(C)(=O)=O)nc(-c2ccc(F)cc2)c1/C=C/[C@@H](O)C[C@@H](O)CC(=O)O		healthy human volunteers	oral, 10 mg, monotherapy	relative to: subjects	fatal TEAE incidence	0%
C[C@@H](NC(=O)N1C(=O)[C@H](Cc2ccnc(N)c2)[C@H]1C(=O)O)C1CCCCC1		healthy adult Chinese volunteers	continuous intravenous infusion, 1.5 mg/kg/h, 5-day infusion, CTCAE 5.0 grading		incidence of AEs leading to death	0%
C[C@]1(CO)Cc2ncn(-c3ccc(C#N)c(Cl)c3)c2C(=O)O1		human, plasma	2 mg single dose, geometric mean		AUC(0-inf)	0.408 µM·h

Excerpt of the above:
SMILES	test	test system	conditions	scale	endpoint	result
C[C@]1(CO)Cc2ncn(-c3ccc(C#N)c(Cl)c3)c2C(=O)O1		human, plasma	2 mg single dose, geometric mean		AUC(0-inf)	0.408 µM·h
